Experimental data from different studies.
A part holds a random share of what one study measured.

Block 1 — technique: protein binding microarray; molecule type: double-stranded DNA, one strand shown; sample: in vitro; tested at: not given; reference: not given; direction: higher = stronger binding
Target: Histone acetyltransferase KAT6A, winged helix 1, GST fusion (KAT6A, Homo sapiens, UniProt Q92794, residues 1-85)
Notes: 8-mer, flanks averaged, mean of 2 arrays, mostly near background
Construct (chain): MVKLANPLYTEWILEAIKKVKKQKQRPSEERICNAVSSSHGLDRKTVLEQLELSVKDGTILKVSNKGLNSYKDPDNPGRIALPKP
With `CGCTCATC` the E-score was 0.157.
`GCACTCTA` has an E-score of -0.0402.
With `ACGTTAGT` the E-score was -0.0211.
With `AAGGTAAG` the E-score was -0.00209.

Block 2 — technique: universal PBM; molecule type: double-stranded DNA, one strand shown; sample: in vitro; tested at: 600 nM; direction: higher = stronger binding
Target: Sal-like protein 4, full length isoform A (SALL4, Homo sapiens, UniProt Q9UJQ4, residues 1-1053)
UniProt Q9UJQ4, sequence (whole entry, looked up): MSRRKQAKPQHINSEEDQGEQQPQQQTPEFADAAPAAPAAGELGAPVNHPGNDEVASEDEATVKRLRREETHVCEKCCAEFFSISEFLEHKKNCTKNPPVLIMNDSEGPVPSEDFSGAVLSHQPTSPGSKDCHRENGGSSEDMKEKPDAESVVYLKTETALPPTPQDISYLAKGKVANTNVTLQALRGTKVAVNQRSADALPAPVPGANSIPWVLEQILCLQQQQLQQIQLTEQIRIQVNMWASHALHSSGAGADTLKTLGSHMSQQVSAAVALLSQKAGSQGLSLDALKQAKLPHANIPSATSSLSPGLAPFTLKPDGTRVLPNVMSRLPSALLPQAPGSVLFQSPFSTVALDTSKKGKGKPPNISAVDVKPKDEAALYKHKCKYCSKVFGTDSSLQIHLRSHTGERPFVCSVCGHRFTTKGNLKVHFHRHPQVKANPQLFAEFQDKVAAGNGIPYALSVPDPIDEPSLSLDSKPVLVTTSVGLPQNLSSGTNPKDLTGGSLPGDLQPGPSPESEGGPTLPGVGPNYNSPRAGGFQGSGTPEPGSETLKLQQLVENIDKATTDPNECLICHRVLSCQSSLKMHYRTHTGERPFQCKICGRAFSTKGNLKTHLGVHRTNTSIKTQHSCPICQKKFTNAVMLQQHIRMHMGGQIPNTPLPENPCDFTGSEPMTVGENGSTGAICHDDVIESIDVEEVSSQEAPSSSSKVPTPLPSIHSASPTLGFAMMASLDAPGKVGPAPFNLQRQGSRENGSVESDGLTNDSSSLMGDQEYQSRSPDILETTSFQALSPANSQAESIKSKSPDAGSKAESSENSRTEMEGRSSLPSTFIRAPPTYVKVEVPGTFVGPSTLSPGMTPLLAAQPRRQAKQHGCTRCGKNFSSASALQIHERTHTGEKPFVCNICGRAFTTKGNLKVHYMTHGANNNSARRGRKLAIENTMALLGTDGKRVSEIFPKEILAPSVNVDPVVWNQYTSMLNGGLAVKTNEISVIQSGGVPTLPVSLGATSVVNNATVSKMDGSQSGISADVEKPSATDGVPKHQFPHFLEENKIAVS
Notes: 8-mer, flanks averaged, mean of replicates
`CGCCGTAC` gave an E-score of -0.192.
With `AGGAAGGC` the E-score was -0.208.
With `TCGACCCA` the E-score was -0.134.
`AGCTCATC` has an E-score of -0.208.
With `CGGGTTTA` the E-score was -0.0116.

Block 3 — technique: competition protein-binding microarray; molecule type: double-stranded DNA, one strand shown; sample: in vitro; tested at: 2 µM; added: Cbf1 competitor, 0.05 µM; direction: higher = stronger binding
Target: Phosphate system positive regulatory protein PHO4, full length, GST-tagged (PHO4, Saccharomyces cerevisiae, UniProt P07270, residues 1-312)
Notes: whole 60-bp probe, lowest competitor level
Construct (chain): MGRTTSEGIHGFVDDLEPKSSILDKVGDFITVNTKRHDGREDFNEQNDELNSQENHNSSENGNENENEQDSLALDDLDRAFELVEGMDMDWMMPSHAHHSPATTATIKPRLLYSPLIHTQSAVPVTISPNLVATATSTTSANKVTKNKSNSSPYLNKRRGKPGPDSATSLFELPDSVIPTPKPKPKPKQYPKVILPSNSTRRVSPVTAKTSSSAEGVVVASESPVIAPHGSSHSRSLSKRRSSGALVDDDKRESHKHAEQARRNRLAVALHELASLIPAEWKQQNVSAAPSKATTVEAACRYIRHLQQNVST
With `CCGTTTCCTTTCCATCACGTGCGGAGGTAGCACCCGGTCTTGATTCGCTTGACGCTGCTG` the fluorescence intensity was 17400 a.u.
With `AGAGCTGCGGGCATGGACGTGCCGATTATTCCCGGGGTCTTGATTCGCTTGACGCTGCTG` the fluorescence intensity was 6250 a.u.
`CTTTCCCGATCTTTTCACGTGTACTTAGCACATTTGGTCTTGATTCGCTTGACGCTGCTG` has a fluorescence intensity of 13400 a.u.
For `CGGGGTTAAGTTTGTGATGTGGGTGGCTTGCAGCAGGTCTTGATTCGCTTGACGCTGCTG`, the fluorescence intensity was 4850 a.u.
`CTAACGAAGGTTTGCCAGGTGGGTGACAAGCCAAGTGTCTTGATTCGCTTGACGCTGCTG` has a fluorescence intensity of 5090 a.u.

Other studies, line by line
`PhoQ, residues 284 288 289 292 302 303 AGGLSV` has a fold induction of 0.0552 (PhoP, residues 12 14 15 18 19 TQALL (Escherichia coli, UniProt P23836); Sort-seq, refers to: YFP reporter; E. coli; PhoQ-PhoP variant library, added: 10 µM Mg2+; reference: high Mg2+ state, higher = stronger signaling).
